Measured values pooled from the literature.
Numbers after ± are the reported error.
T1: STAG2/RAD21 STAG2 80-1060, RAD21 281-420 (Homo sapiens); chain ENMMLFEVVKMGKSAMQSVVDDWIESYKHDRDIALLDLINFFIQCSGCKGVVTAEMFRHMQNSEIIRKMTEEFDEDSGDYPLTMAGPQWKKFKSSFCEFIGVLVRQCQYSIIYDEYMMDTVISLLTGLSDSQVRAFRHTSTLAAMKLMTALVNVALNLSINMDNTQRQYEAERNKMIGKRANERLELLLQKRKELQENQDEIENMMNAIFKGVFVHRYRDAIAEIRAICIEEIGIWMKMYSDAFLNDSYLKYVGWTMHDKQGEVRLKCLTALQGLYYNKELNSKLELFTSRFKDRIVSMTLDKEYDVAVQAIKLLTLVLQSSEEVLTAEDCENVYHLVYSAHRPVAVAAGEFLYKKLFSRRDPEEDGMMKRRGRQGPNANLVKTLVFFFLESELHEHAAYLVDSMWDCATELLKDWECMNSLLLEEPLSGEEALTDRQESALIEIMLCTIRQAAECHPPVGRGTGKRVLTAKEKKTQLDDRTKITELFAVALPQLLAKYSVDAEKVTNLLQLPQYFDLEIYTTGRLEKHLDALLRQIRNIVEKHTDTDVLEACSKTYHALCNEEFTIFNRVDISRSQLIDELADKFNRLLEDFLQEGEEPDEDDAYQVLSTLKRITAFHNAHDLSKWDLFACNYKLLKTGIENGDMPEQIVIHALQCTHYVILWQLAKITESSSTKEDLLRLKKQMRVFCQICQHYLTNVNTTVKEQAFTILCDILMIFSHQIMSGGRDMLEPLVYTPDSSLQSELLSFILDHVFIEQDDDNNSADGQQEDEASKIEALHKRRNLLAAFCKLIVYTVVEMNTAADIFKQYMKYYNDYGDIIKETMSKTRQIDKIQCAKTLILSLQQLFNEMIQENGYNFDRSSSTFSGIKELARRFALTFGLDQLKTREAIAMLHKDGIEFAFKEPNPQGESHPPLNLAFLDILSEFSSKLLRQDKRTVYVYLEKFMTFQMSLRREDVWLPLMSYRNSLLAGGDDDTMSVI; chain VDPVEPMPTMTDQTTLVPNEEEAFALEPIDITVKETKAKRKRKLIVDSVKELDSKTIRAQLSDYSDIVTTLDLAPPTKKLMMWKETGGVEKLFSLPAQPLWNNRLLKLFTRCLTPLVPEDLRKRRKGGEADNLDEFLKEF
T2: Psmc3ip/Mnd1 R82A/K83A/R84A (Mus musculus); chain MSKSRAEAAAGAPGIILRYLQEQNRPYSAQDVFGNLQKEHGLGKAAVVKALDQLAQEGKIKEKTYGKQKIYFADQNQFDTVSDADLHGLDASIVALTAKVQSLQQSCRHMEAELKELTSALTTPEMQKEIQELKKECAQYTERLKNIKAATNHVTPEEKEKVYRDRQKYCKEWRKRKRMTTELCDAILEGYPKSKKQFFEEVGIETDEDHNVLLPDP; chain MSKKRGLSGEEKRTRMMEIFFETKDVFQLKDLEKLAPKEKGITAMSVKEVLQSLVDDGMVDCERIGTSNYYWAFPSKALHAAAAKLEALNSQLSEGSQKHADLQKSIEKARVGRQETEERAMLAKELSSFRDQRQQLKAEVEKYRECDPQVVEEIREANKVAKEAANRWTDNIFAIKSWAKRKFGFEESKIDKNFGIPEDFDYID
B1: Fmnl3 555-954 (Mus musculus, UniProt Q6ZPF4); chain GLSAIRIKKPIKTKFRLPVFNWTALKPNQINGTVFSELDDEKILEDLDLDRFEELFKTKAQGPALDLICSKNKTAQKAASKVTLLEANRAKNLAITLRKAGRSAEEICRAIHTFDLQTLPVDFVECLMRFLPTEAEVKLLRQYERERQPLEELAAEDRFMLLFSKVERLTQRMAGMAFLGNFQDNLQMLTPQLNAIIAASASVKSSQKLKQMLEIILALGNYMNSSKRGAVYGFKLQSLDLLLDTKSTDRKMTLLHFIALTVKEKYPELANFWQELHFVEKAAAVSLENVLLDVKELGRGMELIRRECSIHDNSVLRNFLSTNEGKLDKLQRDAKTAEEAYNAVVRYFGESPKTTPPSVFFPVFVRFIRSYKEAEQENEARKKQEEVMREKQLAQEAKKL
B2: protein mature (Micrurus tener tener, UniProt G9I930); disulfide bonds; chain NLNQFRLMIKCTNDRVWADFVDYGCYCVARDSNTPVDDLDRCCQAQKQCYDEAVKVHGCKPLVMFYSFECRYLASDLDCSGNNTKCRNFVCNCDRTATLCILTATYNRNNHKIDPSRCQ
B3: Fmnl3 555-954 I649A (Mus musculus, UniProt Q6ZPF4); chain GLSAIRIKKPIKTKFRLPVFNWTALKPNQINGTVFSELDDEKILEDLDLDRFEELFKTKAQGPALDLICSKNKTAQKAASKVTLLEANRAKNLAATLRKAGRSAEEICRAIHTFDLQTLPVDFVECLMRFLPTEAEVKLLRQYERERQPLEELAAEDRFMLLFSKVERLTQRMAGMAFLGNFQDNLQMLTPQLNAIIAASASVKSSQKLKQMLEIILALGNYMNSSKRGAVYGFKLQSLDLLLDTKSTDRKMTLLHFIALTVKEKYPELANFWQELHFVEKAAAVSLENVLLDVKELGRGMELIRRECSIHDNSVLRNFLSTNEGKLDKLQRDAKTAEEAYNAVVRYFGESPKTTPPSVFFPVFVRFIRSYKEAEQENEARKKQEEVMREKQLAQEAKKL
B4: dnaG (Saccharolobus solfataricus, UniProt P95980); sequence looked up; chain MSFQMKYDIRLRFEVEGIVEKTDVIGAIFGQTENLFGDEFDLRELQDKGRLGRIIVEVKTKGGKSEGEIIIPSNLDRIETALIAAMVESVDKVGPYNSKFELIEIEDIRAEKLKKIIERAKGILSSWSKEKSLDIKEVINEISSAVKVGEITEYGPERLPAGPDVDKDPNLIIVEGRADVINLLRYGYKNVIAVEGATSRIPETLINLSKMKKTVIAFLDGDHGGDLILKELLSNNVKIDFVARAPIGREVEELTGKEIAKALSNMMPLTQYLKKVQEAEQAIAKNVIAKEEKPIQSETTQQVVQITLPQNILEEIKKLPGTLEGVLYDNNWNLIEKVQVRDIIPKLEAYEDNKVAYIIFDGVITQRLLDLASQKNIKMIIGARIGGINKRPQNVDILTFTDIISS
B5: Fmnl3 555-954 N646A (Mus musculus, UniProt Q6ZPF4); chain GLSAIRIKKPIKTKFRLPVFNWTALKPNQINGTVFSELDDEKILEDLDLDRFEELFKTKAQGPALDLICSKNKTAQKAASKVTLLEANRAKALAITLRKAGRSAEEICRAIHTFDLQTLPVDFVECLMRFLPTEAEVKLLRQYERERQPLEELAAEDRFMLLFSKVERLTQRMAGMAFLGNFQDNLQMLTPQLNAIIAASASVKSSQKLKQMLEIILALGNYMNSSKRGAVYGFKLQSLDLLLDTKSTDRKMTLLHFIALTVKEKYPELANFWQELHFVEKAAAVSLENVLLDVKELGRGMELIRRECSIHDNSVLRNFLSTNEGKLDKLQRDAKTAEEAYNAVVRYFGESPKTTPPSVFFPVFVRFIRSYKEAEQENEARKKQEEVMREKQLAQEAKKL
B6: HNRNPH1 192-280 (Homo sapiens, UniProt P31943); chain RTHYDPPRKLMAMQRPGPYDRPGAGRGYNSIGRGAGFERMRRGAYGGGYGGYDDYNGYNDGYGFGSDRFGRDLNYCFSGMSDHRYGDGG

Molecule	tested on	test	system	setting	scale	quantity	result
B1 (Fmnl3 555-954)	ACTA1, TMR label (Oryctolagus cuniculus, UniProt P68135)	AUC		KCl 50 mM		fraction bound	0.91 fraction
B2 (protein mature)	protein, N-terminal pyroglutamate, disulfides (Micrurus tener tener, UniProt G9I929)	ITC		15 °C, NaCl 150 mM		ΔH	-18.9 ± 1.3 kcal/mol
C3b/Bb C3bBb complex (Homo sapiens)	scn fragment (Staphylococcus aureus)	native gel		20 °C, added: SCIN 1 µM		half-life	< 4 h
sbi fragment (Staphylococcus aureus)	C3 (Homo sapiens)	alternative complement pathway inhibition, inhibitor	human serum			IC50	10 µM
CNSRQTDREDELI			peptide, human polyclonal IgM RF CLAU	concentration not given, 5 µg/mL mAb II-481 coated, added: RF at 50% max binding concentration		inhibition	0%
melittin		isothermal titration calorimetry	POPC/POPG LUVs 90:10%	100 µM, pH 7.0, 60 °C		partitioning enthalpy	-12.5 kcal/mol
rpoS (Escherichia coli, UniProt P13445)	rpoB/rpoC core RNA polymerase (Escherichia coli)	pausing efficiency		σ added in trans, adhE TEC		apparent Kd	0.49 µM
Ac-SKEELERLFNVLNSQNNPTVPMRDRRLPYSFFQGP-NH2 (YAP TEAD-binding domain 15-49 (Trichoplax adhaerens); N-acetyl, C-amide)	TEAD4 217-434 (Homo sapiens, UniProt Q15561)	competition with ligand, AlphaScreen	peptide			IC50	0.88 µM
NSRQTDR			peptide, human polyclonal IgM RF LOP	concentration not given, 5 µg/mL mAb II-481 coated, added: RF at 50% max binding concentration		inhibition	0%
T7 DNA polymerase (bacteriophage T7)	gp2.5 (bacteriophage T7, UniProt P03696)	Vmax versus tension, optical tweezers		100 nM, model fit		probability of functional interaction	1
CD24/Siglec-10 blocking peptide, D-amino acids	CD274 (Homo sapiens, UniProt Q9NZQ7)	competition with ligand, flow cytometry		in cells		IC50	30.2 µM
B3 (Fmnl3 555-954 I649A)	ACTA1, pyrene label (Oryctolagus cuniculus, UniProt P68135)	elongation termination		formin 100 nM, added: capping protein 20 nM		capping protein protection time	150 s
DVKLEFFGFEDHETGGDEGGSGSSNYKIKYFGFDDLSESED (WAPL 423-463 (Homo sapiens, UniProt Q7Z5K2))	T1, STAG2/RAD21 STAG2 80-1060, RAD21 281-420 (Homo sapiens)	ITC	peptide	pH 7.7, 25 °C, NaCl 150 mM		ΔH	-6.66 kcal/mol
Dync1i2 (Mus musculus, UniProt O88487)	Dync1h1 F580Y (Mus musculus, UniProt Q9JHU4)	co-sedimentation	brain extract	added: taxol 20 µM, AMP-PNP 1 mM	relative to: wild type, higher = more dynein bound	DIC2/DHC ratio	1.2 fold
B4 (dnaG)	rrp41/rrp42/rrp4/csl4 exosome, heteromeric cap (Saccharolobus solfataricus)	pull-down				binding	binds
B5 (Fmnl3 555-954 N646A)	ACTA1, TMR label (Oryctolagus cuniculus, UniProt P68135)	AUC		KCl 50 mM		fraction bound	0.56 fraction
RmS-17, glycosylated (Rhipicephalus microplus)	PLAU (Homo sapiens, UniProt P00749)	chromogenic substrate hydrolysis, inhibitor		1 µM		protease inhibition	< 20%
cholecystokinin octapeptide	rat pancreatic acini	refers to: Yes kinase pY416		100 nM, 1 min, calcium-free medium	relative to: untreated	phosphorylation level	261 ± 32%
B6 (HNRNPH1 192-280)	HNRNPH1 192-449 (Homo sapiens, UniProt P31943)	trapping in hydrogel, hydrogel binding		pH 7.5, 4 °C, NaCl 200 mM		binding	binds
kaiA (Synechococcus elongatus, UniProt Q79PF6)	kaiC 1-519 R385A (Synechococcus elongatus, UniProt Q79PF4)	priming phosphorylation, SDS-PAGE		0.2 mg/mL, 30 °C, added: KaiA 0.04 mg/mL	higher = faster	rate constant k1	0.2 h⁻¹
pspA (Escherichia coli, UniProt P0AFM6)	mreB (Escherichia coli, UniProt P0A9X4)	bacterial two-hybrid		30 °C	higher = stronger interaction	LacZ activity	559 ± 183 MU
RmS-3, glycosylated (Rhipicephalus microplus) (sequence not shown)	F2 thrombin (Bos taurus)	chromogenic substrate hydrolysis, inhibitor		1 µM		protease inhibition	< 20%
DMC1 (Homo sapiens, UniProt Q14565)	T2, Psmc3ip/Mnd1 R82A/K83A/R84A (Mus musculus)	pull-down				binding	binds

Repeated from above:
Molecule	tested on	test	system	setting	scale	quantity	result
B6 (HNRNPH1 192-280)	HNRNPH1 192-449 (Homo sapiens, UniProt P31943)	trapping in hydrogel, hydrogel binding		pH 7.5, 4 °C, NaCl 200 mM		binding	binds
